Results pooled from the literature.
Each line is one published result; not all experiments were run side by side. Numbers after ± are the reported error.

| SMILES | assay | test system | setting | solubility |
| --- | --- | --- | --- | --- |
| CCOC(=O)N1C[C@@H](c2cc(Cl)cc(Cl)c2)N[C@@H](c2ccc(N3CCCC3)cc2)C1 | shake-flask, LC-HRMS | aqueous buffer | 16 h, pH 6.8 | < 4 µM |
| COc1ccc2cc(C(=O)Nc3ccc4c(c3)CN(C3CCC(=O)NC3=O)C4=O)ccc2c1 (centres unmarked) | – | DMSO | – | ≤ 30000 µM |
| NC[C@H](NC(=O)[C@@H](CCCCNC(=O)CN1CCN(CC(=O)O)CCN(CC(=O)O)CCN(CC(=O)O)CC1)NC(=O)[C@@H](Cc1c[nH]c2ccccc12)NC(=O)OCC1c2ccccc2-c2ccccc21)C(N)=O | – | water | – | ≥ 5000 µM |
| c1ccc(CSc2ncnc3nc[nH]c23)cc1 | UV absorbance | culture medium | stock diluted to 0.20 mM | 138 µM |
| CCc1nnc(NS(=O)(=O)c2ccc(NC(=O)c3ccc(F)cc3)cc2)s1 | – | aqueous buffer | pH 7.4 | 0.37 mg/mL |
| CC(C)(C)c1sc2ncnc(Oc3c(F)cccc3OC(F)(F)F)c2c1-c1ccc(Cl)cc1 | – | simulated intestinal fluid | pH 6.8 | 50 µM |
| COc1ccc(-c2cc(=O)c3c(OC)cc(OC)cc3o2)cc1 | HPLC | ethanol:butylene glycol 0:100 | – | 11710 ± 74 ppm |
| CC(C)(C)c1nc(-c2cccc(N(Cc3cc(C(=O)[O-])ccc3OP(=O)([O-])[O-])S(=O)(=O)c3c(F)cccc3F)c2F)c(-c2ccnc(N)n2)s1.[Na+].[Na+].[Na+] | HPLC, saturated solution | simulated gastric fluid | 30 s, pH 1.2 | 0.35 mg/mL |
| CCOC(=O)N1C[C@@H](c2cnn(C)c2)N[C@@H](c2ccc(C(F)(F)F)cc2)C1 | shake-flask, LC-HRMS | aqueous buffer | 16 h, pH 6.8 | > 750 µM |
| CCc1nnc(Nc2ccnc3ccc(-c4ccc(S(=O)(=O)N5CCOCC5)cc4)cc23)s1 | thermodynamic | aqueous medium | – | < 0.1 µM |
| CC(=O)O[C@H]1C(=O)[C@@]2(C)[C@H]([C@H](OC(=O)c3ccccc3)[C@]3(O)C[C@H](OC(=O)[C@H](OC(=O)OCc4cc(P(=O)(O)O)ccc4OP(=O)(O)O)[C@@H](NC(=O)c4ccccc4)c4ccccc4)C(C)=C1C3(C)C)[C@]1(OC(C)=O)CO[C@@H]1C[C@@H]2O | HPLC, saturated solution | simulated gastric fluid | 30 s, pH 1.2 | 0.66 mg/mL |
| CC1(CNC(=O)c2ccc(-c3ccc(Br)cc3)cc2)NC(=O)NC1=O (centres unmarked) | – | aqueous buffer | pH 7.4 | < 0.00287 mg/mL |
| O=C(NC1(C(F)(F)F)CC1)c1ccccc1 | – | PBS | 2 h, pH 7.4, 25 °C | 395 µM |
| COc1ccccc1NC(=O)CSc1nnc(-c2ccc([N+](=O)[O-])cc2)n1-c1ccccc1 | – | aqueous buffer | pH 7.4 | < 0.00247 mg/mL |
| COc1cc(OC)c2c(=O)c(OC)c(-c3ccccc3)oc2c1 | HPLC | ethanol:butylene glycol 0:100 | – | 2189 ± 14 ppm |
| Clc1nc(OCc2ccccc2)c2[nH]cnc2n1 | UV absorbance | culture medium | stock diluted to 0.40 mM | 120 µM |
| Cc1cc(Nc2ccnc3ccc(-c4ccc(S(=O)(=O)N5CCOCC5)cc4)cc23)on1 | thermodynamic | aqueous medium | – | 3 µM |
| N#Cc1cc([C@@H]2COC[C@H](c3cc(Cl)cc(Cl)c3)N2)ccc1F | shake-flask, LC-HRMS | aqueous buffer | 16 h, pH 6.8 | < 4 µM |
| CC1(CNC(=O)c2ccc(-c3ccccc3)cc2)NC(=O)NC1=O (centres unmarked) | – | aqueous buffer | pH 7.4 | 0.013 mg/mL |
| c1cncc(-c2cccc(Nc3cc(NC4CCCCC4)ccn3)c2)c1 | – | citrate phosphate-buffered saline | 18 h, pH 7.4, 1% DMSO | 58.9 ± 0.5 µM |
| COc1c(NC(=O)C(=O)c2ccc(OCCN3CCOCC3)c3ccccc23)cc(C(C)(C)C)cc1NS(C)(=O)=O | – | PBS | pH 7.4, 23 °C, 1% DMSO | < 1 µM |
| CC(=O)Nc1ccc(Nc2ncnc(NCCC(=O)OC(C)(C)C)n2)cc1 | – | – | 3 (unit not given) | 193 µM |
| Cc1c(C(=O)O)ccc2c3n(nc12)[C@@H]1[C@H](C3)N(CC2CC2)[C@@]2(C(=O)Nc3cc(Cl)ccc32)[C@H]1c1cccc(Cl)c1F | – | FeSSIF | – | 0.08 mg/mL |
| CC1(C)OC[C@H](C2CCCCC2)N[C@@H]1c1ccc(Cl)c(Cl)c1 | shake-flask, LC-HRMS | aqueous buffer | 16 h, pH 6.8 | < 4 µM |
| CCOC1=CC(c2ccc[nH]2)=N/C1=C\c1cc(Cc2ccc(OC(F)(F)F)cc2)c(C)[nH]1.Cl | – | potassium phosphate buffer | 1.5 h, pH 7.4, room temperature | 13.7 µM |

| SMILES | assay | test system | setting | solubility |
| --- | --- | --- | --- | --- |
| Cc1cc(/C=C/C#N)cc(C)c1Nc1ccnc(Nc2ccc(C#N)cc2)n1 | – | aqueous buffer | 24 h, pH 1.2, 37 °C | 0.00111 ± 7e-05 mg/mL |
| COC1=CC(c2ccc[nH]2)=N/C1=C\c1[nH]c(-c2ccccc2)cc1-c1ccccc1 | – | potassium phosphate buffer | 1.5 h, pH 7.4, room temperature | < 3.13 µM |
| Cc1n(Cc2ccc3ccccc3n2)cc[n+]1Cc1ccc2ccccc2c1.[Br-] | – | aqueous 2-hydroxypropyl-β-cyclodextrin | – | > 10000 µM |
| CCOC(=O)N1C[C@@H](c2ccc(C(=O)OC)cc2)N[C@@H](c2ccc(N3CCCC3)cc2)C1 | shake-flask, LC-HRMS | aqueous buffer | 16 h, pH 6.8 | < 4 µM |
| Cc1cc(C)c(S(=O)(=O)N(C)CC(=O)N2CCC(C(N)=O)CC2)c(C)c1 | – | aqueous buffer | pH 7.4 | 0.299 mg/mL |
| C[C@H]1OC[C@@H](C2CCCC2)N[C@@H]1c1cccc(Cl)c1 | shake-flask, LC-HRMS | aqueous buffer | 16 h, pH 6.8 | < 4 µM |
| COc1ccc(-c2nnc(SCC(=O)Nc3c(F)cc(F)cc3Br)n2C)cc1 | – | aqueous buffer | pH 7.4 | < 0.00335 mg/mL |
| CCOC(=O)N1C[C@@H](c2ccc(F)cc2)N[C@@H](C2CCOCC2)C1 | shake-flask, LC-HRMS | aqueous buffer | 16 h, pH 6.8 | > 750 µM |
| CCCCNc1ccnc(Nc2cccc(-c3cccnc3)c2)n1 | – | citrate phosphate-buffered saline | 18 h, pH 7.4, 1% DMSO | 5 ± 0.2 µM |
| O=C(Nc1ccc(OC(F)(F)F)cc1)N[C@H]1CC[C@H](Oc2ccc(C(=O)O)cc2)CC1 | – | deionised water | 60 min, pH 6.6, 37 °C, non-sink dissolution | 0.000169 mg/mL |
| c1cncc(-c2cccc(Nc3nccc(NC4CCNCC4)n3)c2)c1 | – | citrate phosphate-buffered saline | 18 h, pH 7.4, 1% DMSO | 68.4 ± 2 µM |
| Nc1nc2c(ncn2COCCO)c(=O)[nH]1 | – | methanol + ethanol | 24 h, 298.2 K, mass fraction 0.7 | 0.41 mg/mL |
| COc1cc(OC)c2c(=O)cc(-c3ccccc3)oc2c1 | HPLC | ethanol:butylene glycol 75:25 | – | 13530 ± 74 ppm |
| O=C(Nc1ccccc1)C1(C(F)(F)F)CC1 | – | PBS | 2 h, pH 7.4, 25 °C, 2% DMSO | 367 µM |
| O=S(=O)(c1ccc(-c2ccc3nccc(Nc4ccncc4)c3c2)cc1)N1CCOCC1 | thermodynamic | aqueous medium | – | 7 µM |
| COc1cc([N+](=O)[O-])ccc1NC(=O)CN1CCOCC1 | – | aqueous buffer | pH 7.4 | 0.00466 mg/mL |
| O=C(Nc1cccc2[nH]ccc12)c1ccccc1 | kinetic solubility | PBS with NaCl, SDS, ThT | pH 7.4 | ≥ 300 µM |
| CC(C)(C)c1ccc([C@H]2COC[C@H](C3CCCCC3)N2)cc1 | shake-flask, LC-HRMS | aqueous buffer | 16 h, pH 6.8 | < 4 µM |
| CCCCCCCCCCCCCCCC(=O)NCCOC(=O)C[C@@H](CN)CC(C)C | – | hydrochloride buffer | 12 h, pH 1.2, 37 °C | 5.56 mg/mL |
| Clc1nc(SCc2ccccc2)c2[nH]cnc2n1 | UV absorbance | culture medium | stock diluted to 0.60 mM | 57 µM |
| COc1cccc(OC)c1CNC(=O)c1ccc2c(c1)C(=NNc1ccc(S(N)(=O)=O)cc1)C(=O)N2 | – | aqueous buffer | pH 7.4 | 0.00273 mg/mL |
| c1cncc(-c2cccc(Nc3nccc(NC4CCOCC4)n3)c2)c1 | – | citrate phosphate-buffered saline | 18 h, pH 7.4, 1% DMSO | 64.1 ± 3.1 µM |
| Cn1cncc1[C@@](N)(c1ccc(Cl)cc1)c1ccc2c(c1)c(-c1cccc(Cl)c1)cc(=O)n2C | – | citrate buffer | pH 3.0, 25 °C, final pH 3.21 | 2.2 ± 0.0528 mg/mL |
| COc1cccc(-c2cccc(Nc3nccc(NC4CCCCC4)n3)c2)c1 | – | citrate phosphate-buffered saline | 18 h, pH 7.4, 1% DMSO | 0.3 ± 1.1 µM |
| CCc1cc(C)cc(CC)c1-c1c(OC(=O)C2(C(F)(F)F)CC2)n2n(c1=O)CCOCC2 | – | PBS | 2 h, pH 7.4, 25 °C, 2% DMSO | 332 µM |

Some of these lines once more:
| SMILES | assay | test system | setting | solubility |
| --- | --- | --- | --- | --- |
| COc1cc(OC)c2c(=O)c(OC)c(-c3ccccc3)oc2c1 | HPLC | ethanol:butylene glycol 0:100 | – | 2189 ± 14 ppm |
| c1cncc(-c2cccc(Nc3cc(NC4CCCCC4)ccn3)c2)c1 | – | citrate phosphate-buffered saline | 18 h, pH 7.4, 1% DMSO | 58.9 ± 0.5 µM |
| COc1cccc(OC)c1CNC(=O)c1ccc2c(c1)C(=NNc1ccc(S(N)(=O)=O)cc1)C(=O)N2 | – | aqueous buffer | pH 7.4 | 0.00273 mg/mL |
